Experimental data pooled from the literature.
Numbers after ± are the reported error.

Compound | test | system | conditions | scale | endpoint | result
CN(C)C(=O)c1cc2cnc(Nc3ccc(-c4ccc5c(=O)cc(N6CCOCC6)oc5c4)cc3)nc2n1C1CCCC1 | – | BALB/c mouse, liver | oral, 20 mg/kg, 24 h | – | concentration | 14 ± 10.1 ng/g
N[C@H]1C(O)O[C@H](CO)[C@@H](O)[C@@H]1O (stereo partly drawn) | – | aqueous solution | 50 mM, with: glucose | – | osmolality | 45 mOsmol/kg
O=C(O)CCC(=O)O.[2H]C([2H])([2H])Oc1cc(C)c2[nH]ccc2c1CN1CC[C@@H](C2CC2)C[C@H]1c1ccc(C(=O)O)cc1 | – | healthy Chinese subjects | 50 mg, single ascending dose | – | TEAE urine bacteria positive | 0%
Cn1cc(Nc2nccc(-c3ccc4c(c3)CN(C3COC3)CC[C@H]4NC(=O)c3cn(C(C)(C)C)nn3)n2)cn1 | measured: CD4+ T cell count | human, clinical trial, whole blood | 150 mg twice daily, follow-up | – | percent change from baseline | 8.78%
COc1ncc(-c2nc3c(n2C(C)C)[C@H](c2ccc(Cl)cc2)N(c2cc(Cl)cn(C)c2=O)C3=O)c(OC)n1 | – | human patients, plasma | oral, 350 mg, high-dose arm, cycle 2 day 1 | – | median half-life | 22.8 h
N#Cc1ccc2c(c1)[C@H]1CCCN(C(=O)c3ccc4[nH]cnc4c3)[C@H]1C2 | – | human, male | 20 mg, day 15 | – | androstenedione level | 9.5 nmol/L
Cc1cc(NC2CCN(C(=O)OC3CCN(C(=O)/C=C/CN(C)C)C3)CC2)n2ncc(C(C)C)c2n1 (stereo not drawn) | Phase I dose escalation CTCAE v4.0, measured: abdominal pain | patients with advanced solid tumours | dose not given, Total dosing grade 3 or higher | – | patients with adverse event | 2%
CC(C)(C(=O)N1CCOc2c(C#N)cncc2C1)C(F)F | measured: phlebitis | human, both sexes | oral, 20 mg once daily, 14 days, multiple ascending dose | – | subjects with TEAE | 0%
COc1ccc([C@@H](O)c2cc(-c3ncnc4cc(N5CCOCC5)ccc34)c(F)cc2Cl)nn1 | – | locally advanced rectal cancer patients | 150 mg, with: capecitabine and radiotherapy | – | gastrointestinal disorder TEAE | 100%
Nc1nc(NC2CC2)c2ncn([C@H]3C=C[C@@H](CO)C3)c2n1 | – | Tat- transgenic mouse, striatum | subcutaneous osmotic pump, dose not given, 5 d | – | drug concentration | 134000 ± 26100 ng/g
CCOc1c([C@H](C)n2nc(C)c3c(N)ncnc32)cc(Cl)c(F)c1[C@@H]1CNC(=O)C1 | ECG | previously treated B-cell malignancy patients | oral, 5 mg once daily, baseline QTcF ≤450 ms | – | observations QTcF >450 ≤480 ms | 0%
C[C@@H](O)[C@H](NC(=O)c1ccc(C#Cc2ccccc2)cc1)C(=O)NO | – | octanol/buffer | pH 11 | – | logP | 0.9
NC1(C(=O)N[C@@H](CCO)c2ccc(Cl)cc2)CCN(c2nc[nH]c3nccc2-3)CC1 | – | metastatic CRPC patients | 480 mg b.i.d., grade 3 to 4, treatment-related, with: enzalutamide 160 mg daily | – | incidence of Fatigue | 0%
COC(=O)Nc1cc(C(=O)Nc2ccc(CN)cc2)cc2ccc(C(=N)N)cc12 | – | octanol/buffer | pH 11, urokinase ligand set | – | logP | 0.69
COc1cc2c3cc1Oc1c(OC)c(OC)cc4c1[C@@H](Cc1ccc(O)c(c1)Oc1ccc(cc1)C[C@@H]3N(C)CC2)N(C)CC4 | – | mouse plasma, K3EDTA | 0.5 h, on ice | – | remaining compound | 101%
Cc1cc(Nc2ncnc3ccc(NC4=NC(C)(C)CO4)cc23)ccc1Oc1ccn2ncnc2c1 | – | human, plasma | oral, 300 mg, day 1, single dose alone | – | AUC(0-inf), geometric mean | 2.03 µg·h/mL
CNC(=O)c1ccc(-c2cnc3ncc(Cc4ccc5ncccc5c4)n3n2)cc1F | – | Japanese patients | oral, 400 mg, grade 3/4 | – | Platelet count decreased dose reduction/interruption | 2%
COc1cc2c3c(n(CCCN4CCOCC4)c(=O)c2cc1OC)-c1cc2c(cc1C3=O)OCO2 | – | dog | intravenous | – | MTD | 50 mg/m²
CCn1cc(C(=O)N2CCOCC2)c(=O)c2cc(NC3Cc4ccccc4C3)cnc21 | – | human, fed | oral suspension, 1200 mg single dose, arithmetic mean | – | AUC(0-last) | 39.1 µg·h/mL

Compound | test | system | conditions | scale | endpoint | result
CC(C)n1c(Nc2cccnc2)nc2cnc(Nc3ccc(N4CCN(C)CC4)cc3)nc21 | measured: alanine aminotransferase increased | healthy male subjects | oral, 100 mg, study, with: gemfibrozil | – | subjects with adverse event | 21.4%
Cc1ccc([C@@H]2O[C@H](CO)[C@@H](O)[C@H](O)[C@H]2O)cc1Cc1ccc(-c2ccc(F)cc2)s1 | – | Japanese type 2 diabetes patients | 400 mg, day 2, 24 h urine collection | reference: baseline | urinary calcium excretion change | -34.3 mg
O=C(O)[C@H]1O[C@@H](Oc2cc(O)cc(/C=C\c3ccc(O)cc3)c2)[C@H](O)[C@@H](O)[C@@H]1O | – | human, cerebrospinal fluid | dose not given, mean | – | CSF concentration | not detected
C[C@@H](O)[C@H](NC(=O)c1ccc(C#Cc2ccccc2)cc1)C(=O)NCC1(C)NC(=O)NC1=O (stereo partly drawn) | – | octanol/buffer | pH 11 | – | logP | 0.99
CC1(C)CCC(CN2CCN(c3ccc(C(=O)NS(=O)(=O)c4ccc(NCC5CCOCC5)c([N+](=O)[O-])c4)c(Oc4cnc5[nH]ccc5c4)c3)CC2)=C(c2ccc(Cl)cc2)C1 | – | human | concentration not given | – | absolute neutrophil count | 400 to 900 cells/µL
O=C(O)C[C@H](O)C[C@H](O)/C=C/c1c(C2CC2)nc2ccccc2c1-c1ccc(F)cc1 | – | FVB wild-type mouse, plasma | oral, 5 mg/kg, geometric mean, with: rifampin 20 mg/kg oral | – | AUC(0-12h) | 359 nM·h
COc1cccc(-c2n[nH]c(SCc3ccccn3)n2)c1OC | – | Sprague-Dawley rats, both sexes | oral dietary, 100 mg/kg/day, day 7, 3 h | – | plasma concentration | 4.67 µg/mL
O=C(Nc1nc2cccc(-c3ccc(CN4CCS(=O)(=O)CC4)cc3)n2n1)C1CC1 | measured: food allergy | human rheumatoid arthritis patients | oral, 150 mg once daily, 4 weeks, regardless of relatedness | – | treatment-emergent adverse events | 0%
COc1ccc2[nH]c([S+]([O-])Cc3ncc(C)c(OC)c3C)nc2c1 (stereo not drawn) | – | healthy Chinese volunteers CYP2C19 IM, plasma | oral, 20 mg single dose, enteric-coated capsules | – | AUC(0-t) | 0.725 ± 0.524 µg·h/mL
CCNCCNC(=O)c1c(C)[nH]c(/C=C2\C(=O)Nc3ccc(F)cc32)c1C | – | human, serum | 37.5 mg maintenance dose | – | serum concentration | 0.0148 µg/mL
CCCCCCCC[C@H](NC(=O)[C@@H]1C[C@H](C)CN1C(=O)/C=C/[C@@H](C)CC)C(=O)N[C@H](C(=O)NC(C)(C)C(=O)N[C@@H](CC(C)C)C(=O)N[C@@H](CC(C)C)C(=O)NC(C)(C)C(=O)NC(C)(C)C(=O)NCCC(=O)N[C@@H](C)CN(C)C)[C@H](O)C(C)C | circular dichroism | phosphate buffer | pH 7.4, 20 °C | – | alpha-helix content | 97.5%
O=C(COc1ccc(Cl)cc1)NC12CC(c3nnc([C@H]4C[C@@H](OC(F)(F)F)C4)o3)(C1)C2 | – | humans | concentration not given | – | muscle spasms | 5.3%
Cc1ccc(Sc2ccccc2N2CCNCC2)c(C)c1 | – | healthy adult men | oral, 2.5 mg single dose, treatment-emergent adverse events | – | diarrhoea incidence | 0%
CNC(=O)c1cc(Oc2ccc(NC(=O)Nc3ccc(Cl)c(C(F)(F)F)c3)cc2)ccn1 | – | NOD-SCID mouse, serum | ip, 30 mg/kg | – | CRE | 0.35 ± 0.19 mg/dL
O=S(=O)(O)Oc1cccc(O)c1O | – | human, cerebrospinal fluid | concentration not given, mean | – | CSF concentration | 3.8 nM
Cn1cc([C@H]2C[C@H]3CSC(N)=N[C@@]3(c3ccc(F)cc3F)CO2)cn1 | – | male 129/SVE mouse, CSF | subcutaneous, 50 mg/kg, 6 h | – | CSF concentration | 673 nM
O=C1c2ccncc2C(=O)c2c1[nH]c1ccccc21 | no effect | rat, normal | intravenous, 1 mg/kg | – | RV and pulmonary vascular structure | no effect
CN[C@@H](C)C(=O)N[C@H]1CN(S(=O)(=O)c2cccc(S(=O)(=O)N3CC[C@H]4CC[C@@H](C(=O)NC(c5ccccc5)c5ccccc5)N4C(=O)[C@@H](NC(=O)[C@H](C)NC)C3)c2)CC[C@H]2CC[C@@H](C(=O)NC(c3ccccc3)c3ccccc3)N2C1=O | LC-MS/MS | human, advanced solid tumours, plasma | intravenous, 45 mg weekly, day 15 | – | AUC(0-t) | 1.29 ± 0.752 µg·h/mL
COc1cc2c(Nc3ccc(Cl)c(Cl)c3F)ncnc2cc1OC[C@@H]1C[C@@H]2CN(C)C[C@@H]2C1 | – | FVB Mdr1a/b(-/-) Bcrp1(-/-) mouse | oral, 70 mg/kg, 2 h | – | total plasma concentration | 2030 ng/mL

Compound | test | system | conditions | scale | endpoint | result
CC(=O)O[C@H]1C(=O)[C@@]2(C)[C@H]([C@H](OC(=O)c3ccccc3)[C@]3(O)C[C@H](OC(=O)[C@H](O)[C@@H](NC(=O)c4ccccc4)c4ccccc4)C(C)=C1C3(C)C)[C@]1(OC(C)=O)CO[C@@H]1C[C@@H]2O | measured: decreased appetite | patients with advanced solid tumours | intravenous, dose not given, grade 3 and 4, possibly related to drug | – | adverse event incidence | 0%
CCn1ccc2c([C@](O)(c3cnc(C(F)(F)F)c(Cl)c3)C3CC3)n(C)nc2c1=O | – | rat Sprague-Dawley male, blood | intravenous, 1 mg/kg | – | CLint,u | 7.92 L/h/kg
CCOc1ccc(C(C)=O)cc1Cc1c(O)nc(N)nc1O | – | octanol/buffer | pH 11, known kinase inactives set | – | logP | -2.1
CC(C)(C)c1ccc(O)c(CN(Cc2cc(C(C)(C)C)ccc2O)C2CCC(NC(N)=O)CC2)c1 (stereo not drawn) | – | C57BL/6 mouse, male, brain | oral, 10 mg/kg | reference: oral AUC(0-inf) over intraperitoneal | relative bioavailability | 50%
CC(C)N(CCCCOCC(=O)NS(C)(=O)=O)c1cnc(-c2ccccc2)c(-c2ccccc2)n1 | measured: Haematoma | healthy male human | oral, 200 µg | – | adverse event incidence | 4.5%
FC(F)(F)c1ccc(CNc2ccc(Cc3c[nH]c4ncc(Cl)cc34)cn2)cn1 | – | patients with advanced solid tumours | oral, 1000 mg/day, TGCT cohort, all grades | – | decreased appetite incidence | 21%
CCO[C@H]1CCN(Cc2c(OC)cc(C)c3[nH]ccc23)[C@H](c2ccc(C(=O)O)cc2)C1 | – | PNH patients, active haemolysis | oral, 50 mg, 4 weeks, treatment | – | incidence musculoskeletal chest pain | 0%
NC(=O)N1c2ccccc2C=Cc2ccccc21 | rotarod test | mouse, CCI neuropathic pain model | 20 mg/kg | – | time to first slip | 0.8 ± 0.08 min
Cc1cc(Nc2ccc(S(F)(F)(F)(F)F)cc2)n2nc(C(C)(F)F)nc2n1 | – | Plasmodium falciparum malaria patients | oral, 250 mg | – | adverse event Vomiting | 9.1%
Cc1nc(N)sc1-c1ccnc(Nc2ccc(N(C)C)cc2)n1 | – | octanol/buffer, 40 mM buffer | pH 11 | – | logP | 3.25
Cc1cc(-c2nccc3c2ccn3CC(=O)Nc2ccc(-c3cnccn3)cn2)ccn1 | measured: AUCtau | human, plasma | oral, 15 mg once daily | reference: day 16 over day 1 | accumulation ratio | 1.69
[O]=[Co].[O]=[Co][O][Co]=[O] | – | Crl:CD(SD) rat female, blood | oral, 220 mg Co/kg/day, 90 days, repeated dose | – | haematocrit | 47%
Cc1c(NS(=O)(=O)c2cccc3nonc23)c(=O)n(-c2ccccc2)n1C | – | octanol/buffer | pH 11, known kinase inactives set | – | logP | -0.81
Cn1c(=O)oc2ccc(-c3ccc(C[C@@H](C#N)NC(=O)[C@@H]4CNCCCO4)cc3)cc21 | – | human, severe renal impairment, plasma | oral, 25 mg single dose, mean | – | Vd/F | 492 L
CCc1cc(C(=O)NC)c2nccc(N3CCc4c(cc(Cn5ccnc5)cc4-c4cn(C)nc4C(F)(F)F)C3=O)c2c1 | – | Sprague Dawley rat | oral, 100 mg/kg twice daily, day 3, 7-day toxicology study | – | body weight | 226 ± 3.9 g
COc1ccc2c(c1)CN(C(=O)CCN1CCC(Cc3ccccc3)CC1)CC[S@@+]2[O-] | telemetry | conscious male beagle dogs | intravenous, 4 mg/kg, 1 h | – | QT interval | 229 ± 20 ms
Cl.[2H]C([2H])([2H])CC(=O)c1cnc(NC(=O)C2CC2)cc1Nc1cccc(-c2ncn(C([2H])([2H])[2H])n2)c1OC | geometric mean | human | oral, 20 mg once daily, day 1, fasted, liquid, multiple dose | – | elimination rate constant | 3.08e-05 s⁻¹
CCc1nc(C(N)=O)c(Nc2ccc(N3CCC(N4CCN(C)CC4)CC3)c(OC)c2)nc1NC1CCOCC1 | – | Japanese patients, plasma | oral, 40 mg, cycle 1 day 28, multiple doses, mean | – | Cmax | 0.123 µg/mL
CCN1/C(=C/C(C)=O)Sc2ccc(F)cc21 | – | cynomolgus monkey | oral, 10 mg/kg, 6 h post-dose | – | QRS duration | 36 ± 1 ms

For quick reference, copied from above:
Compound | test | system | conditions | scale | endpoint | result
O=S(=O)(O)Oc1cccc(O)c1O | – | human, cerebrospinal fluid | concentration not given, mean | – | CSF concentration | 3.8 nM
COc1ccc([C@@H](O)c2cc(-c3ncnc4cc(N5CCOCC5)ccc34)c(F)cc2Cl)nn1 | – | locally advanced rectal cancer patients | 150 mg, with: capecitabine and radiotherapy | – | gastrointestinal disorder TEAE | 100%
Cc1ccc([C@@H]2O[C@H](CO)[C@@H](O)[C@H](O)[C@H]2O)cc1Cc1ccc(-c2ccc(F)cc2)s1 | – | Japanese type 2 diabetes patients | 400 mg, day 2, 24 h urine collection | reference: baseline | urinary calcium excretion change | -34.3 mg
Cc1cc(NC2CCN(C(=O)OC3CCN(C(=O)/C=C/CN(C)C)C3)CC2)n2ncc(C(C)C)c2n1 (stereo not drawn) | Phase I dose escalation CTCAE v4.0, measured: abdominal pain | patients with advanced solid tumours | dose not given, Total dosing grade 3 or higher | – | patients with adverse event | 2%
